Experimental data from different studies.
Compare with care: the assays were run in different laboratories. Numbers after ± are the reported error.
Chain of UniProt O15297 (whole entry, looked up): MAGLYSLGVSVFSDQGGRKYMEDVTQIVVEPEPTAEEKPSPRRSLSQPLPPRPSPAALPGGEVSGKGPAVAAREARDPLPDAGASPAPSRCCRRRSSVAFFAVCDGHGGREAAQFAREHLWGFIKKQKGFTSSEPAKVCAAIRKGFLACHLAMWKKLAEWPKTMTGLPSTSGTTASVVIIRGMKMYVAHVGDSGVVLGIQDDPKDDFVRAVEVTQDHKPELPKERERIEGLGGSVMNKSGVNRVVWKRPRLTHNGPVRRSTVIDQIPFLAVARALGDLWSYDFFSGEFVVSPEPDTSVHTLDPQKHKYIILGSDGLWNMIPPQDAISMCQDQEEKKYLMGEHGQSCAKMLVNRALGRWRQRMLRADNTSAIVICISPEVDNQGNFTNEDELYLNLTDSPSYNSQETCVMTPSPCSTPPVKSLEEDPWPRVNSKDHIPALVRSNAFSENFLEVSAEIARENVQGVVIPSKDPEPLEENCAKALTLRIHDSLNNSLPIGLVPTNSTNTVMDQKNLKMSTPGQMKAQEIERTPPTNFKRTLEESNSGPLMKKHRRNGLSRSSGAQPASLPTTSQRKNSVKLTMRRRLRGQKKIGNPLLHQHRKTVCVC
Chain of UniProt P33533 (whole entry, looked up): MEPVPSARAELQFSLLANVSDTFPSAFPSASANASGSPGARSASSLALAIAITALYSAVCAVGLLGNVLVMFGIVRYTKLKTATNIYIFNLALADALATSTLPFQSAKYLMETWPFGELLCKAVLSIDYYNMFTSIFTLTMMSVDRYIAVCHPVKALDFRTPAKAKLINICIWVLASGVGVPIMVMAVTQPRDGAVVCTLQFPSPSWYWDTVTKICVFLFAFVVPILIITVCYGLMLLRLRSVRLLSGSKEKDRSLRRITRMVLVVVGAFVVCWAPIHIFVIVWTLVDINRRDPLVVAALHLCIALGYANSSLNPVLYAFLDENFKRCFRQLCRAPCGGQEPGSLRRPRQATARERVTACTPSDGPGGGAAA
Chain of UniProt Q9NSD7 (whole entry, looked up): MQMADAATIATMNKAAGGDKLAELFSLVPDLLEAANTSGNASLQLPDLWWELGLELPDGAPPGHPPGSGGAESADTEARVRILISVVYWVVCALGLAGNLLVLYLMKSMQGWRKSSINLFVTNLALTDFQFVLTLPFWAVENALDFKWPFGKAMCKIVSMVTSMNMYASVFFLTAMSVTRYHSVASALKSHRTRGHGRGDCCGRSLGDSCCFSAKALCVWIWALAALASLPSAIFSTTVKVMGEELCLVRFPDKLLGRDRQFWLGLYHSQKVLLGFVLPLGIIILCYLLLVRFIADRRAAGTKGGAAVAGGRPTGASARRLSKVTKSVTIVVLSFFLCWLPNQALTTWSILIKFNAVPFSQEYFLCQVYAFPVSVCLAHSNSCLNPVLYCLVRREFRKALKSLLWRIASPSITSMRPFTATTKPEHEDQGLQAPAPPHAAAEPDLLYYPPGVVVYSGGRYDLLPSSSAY
Chain of UniProt P35462 (whole entry, looked up): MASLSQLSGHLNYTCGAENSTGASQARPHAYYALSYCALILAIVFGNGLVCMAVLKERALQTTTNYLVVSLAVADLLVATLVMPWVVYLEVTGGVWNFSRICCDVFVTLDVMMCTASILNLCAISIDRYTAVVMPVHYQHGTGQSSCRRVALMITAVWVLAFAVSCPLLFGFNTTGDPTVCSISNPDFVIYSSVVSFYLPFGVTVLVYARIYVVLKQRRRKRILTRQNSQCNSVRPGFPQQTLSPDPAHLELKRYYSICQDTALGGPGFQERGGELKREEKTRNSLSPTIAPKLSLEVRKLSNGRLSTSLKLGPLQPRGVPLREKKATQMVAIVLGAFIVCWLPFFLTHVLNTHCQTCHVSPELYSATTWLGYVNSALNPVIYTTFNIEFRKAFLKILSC
Chain of UniProt P35367 (whole entry, looked up): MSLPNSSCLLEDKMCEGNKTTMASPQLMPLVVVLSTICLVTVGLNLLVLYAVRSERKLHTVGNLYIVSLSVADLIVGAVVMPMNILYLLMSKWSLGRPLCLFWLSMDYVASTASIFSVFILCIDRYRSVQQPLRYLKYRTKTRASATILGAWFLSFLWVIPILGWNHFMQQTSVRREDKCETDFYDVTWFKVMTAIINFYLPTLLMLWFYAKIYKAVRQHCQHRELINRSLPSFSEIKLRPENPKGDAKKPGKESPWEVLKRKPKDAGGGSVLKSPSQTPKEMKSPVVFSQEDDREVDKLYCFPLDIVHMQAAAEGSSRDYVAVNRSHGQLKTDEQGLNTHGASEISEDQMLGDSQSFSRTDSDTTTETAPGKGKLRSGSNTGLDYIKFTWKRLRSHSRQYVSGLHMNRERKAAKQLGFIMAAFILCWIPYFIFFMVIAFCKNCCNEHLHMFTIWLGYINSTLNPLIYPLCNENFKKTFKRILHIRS
Chain of UniProt P50406 (whole entry, looked up): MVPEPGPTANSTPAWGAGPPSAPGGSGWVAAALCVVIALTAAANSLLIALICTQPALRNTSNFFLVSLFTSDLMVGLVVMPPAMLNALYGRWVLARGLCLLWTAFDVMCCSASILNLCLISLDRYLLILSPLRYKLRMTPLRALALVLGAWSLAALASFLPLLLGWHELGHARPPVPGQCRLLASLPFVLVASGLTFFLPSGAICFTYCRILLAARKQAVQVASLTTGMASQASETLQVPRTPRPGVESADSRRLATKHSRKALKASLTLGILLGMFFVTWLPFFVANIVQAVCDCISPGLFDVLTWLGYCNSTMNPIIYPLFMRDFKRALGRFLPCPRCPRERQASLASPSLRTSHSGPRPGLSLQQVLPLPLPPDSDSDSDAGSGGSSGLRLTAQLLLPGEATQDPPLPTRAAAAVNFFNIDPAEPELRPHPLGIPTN
Chain of UniProt Q570C0 (whole entry, looked up): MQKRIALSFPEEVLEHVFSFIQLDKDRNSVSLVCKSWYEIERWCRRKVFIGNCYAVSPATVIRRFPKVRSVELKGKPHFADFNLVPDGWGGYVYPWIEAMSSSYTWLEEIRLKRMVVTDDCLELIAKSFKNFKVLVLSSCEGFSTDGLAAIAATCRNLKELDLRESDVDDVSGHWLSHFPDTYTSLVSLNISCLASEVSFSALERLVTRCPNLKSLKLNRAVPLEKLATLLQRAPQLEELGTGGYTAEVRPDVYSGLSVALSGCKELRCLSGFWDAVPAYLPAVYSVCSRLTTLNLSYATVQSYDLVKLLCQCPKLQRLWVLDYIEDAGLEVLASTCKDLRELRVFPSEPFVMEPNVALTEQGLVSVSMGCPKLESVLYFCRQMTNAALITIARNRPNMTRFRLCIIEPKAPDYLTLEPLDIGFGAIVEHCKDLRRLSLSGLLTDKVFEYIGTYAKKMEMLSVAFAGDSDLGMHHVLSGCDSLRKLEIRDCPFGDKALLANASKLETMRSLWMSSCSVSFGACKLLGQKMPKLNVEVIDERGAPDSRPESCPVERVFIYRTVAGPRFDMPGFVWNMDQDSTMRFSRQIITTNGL
Chain of UniProt P31645 (whole entry, looked up): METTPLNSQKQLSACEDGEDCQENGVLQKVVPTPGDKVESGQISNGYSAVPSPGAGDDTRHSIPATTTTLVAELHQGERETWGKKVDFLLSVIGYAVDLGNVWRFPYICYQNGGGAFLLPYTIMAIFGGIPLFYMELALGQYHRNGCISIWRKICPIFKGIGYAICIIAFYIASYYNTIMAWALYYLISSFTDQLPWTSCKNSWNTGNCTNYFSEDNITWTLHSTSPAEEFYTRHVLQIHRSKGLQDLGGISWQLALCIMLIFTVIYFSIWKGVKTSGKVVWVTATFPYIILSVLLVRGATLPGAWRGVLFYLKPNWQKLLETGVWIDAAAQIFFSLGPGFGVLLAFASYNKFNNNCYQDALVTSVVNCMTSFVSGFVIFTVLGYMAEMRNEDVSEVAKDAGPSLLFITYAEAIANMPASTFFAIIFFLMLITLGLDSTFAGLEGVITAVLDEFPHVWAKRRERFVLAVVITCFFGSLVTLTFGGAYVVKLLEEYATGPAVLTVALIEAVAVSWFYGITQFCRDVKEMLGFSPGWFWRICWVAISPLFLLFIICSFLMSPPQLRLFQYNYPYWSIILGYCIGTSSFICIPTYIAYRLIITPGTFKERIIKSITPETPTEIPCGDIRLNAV
Chain of UniProt Q38825 (whole entry, looked up): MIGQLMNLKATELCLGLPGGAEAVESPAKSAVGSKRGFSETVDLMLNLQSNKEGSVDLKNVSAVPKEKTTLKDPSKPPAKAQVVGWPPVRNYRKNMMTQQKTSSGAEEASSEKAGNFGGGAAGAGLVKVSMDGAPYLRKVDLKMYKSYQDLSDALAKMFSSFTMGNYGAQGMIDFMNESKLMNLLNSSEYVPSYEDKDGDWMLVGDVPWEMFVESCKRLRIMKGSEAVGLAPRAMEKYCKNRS
Chain of UniProt Q07812 (whole entry, looked up): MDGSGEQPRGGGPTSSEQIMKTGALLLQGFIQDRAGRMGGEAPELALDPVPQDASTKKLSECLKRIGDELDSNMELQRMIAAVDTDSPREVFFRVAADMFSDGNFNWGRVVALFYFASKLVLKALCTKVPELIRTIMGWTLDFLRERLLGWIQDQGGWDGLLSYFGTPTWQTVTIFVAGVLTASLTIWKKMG
Chain of UniProt Q9Y5X5 (whole entry, looked up): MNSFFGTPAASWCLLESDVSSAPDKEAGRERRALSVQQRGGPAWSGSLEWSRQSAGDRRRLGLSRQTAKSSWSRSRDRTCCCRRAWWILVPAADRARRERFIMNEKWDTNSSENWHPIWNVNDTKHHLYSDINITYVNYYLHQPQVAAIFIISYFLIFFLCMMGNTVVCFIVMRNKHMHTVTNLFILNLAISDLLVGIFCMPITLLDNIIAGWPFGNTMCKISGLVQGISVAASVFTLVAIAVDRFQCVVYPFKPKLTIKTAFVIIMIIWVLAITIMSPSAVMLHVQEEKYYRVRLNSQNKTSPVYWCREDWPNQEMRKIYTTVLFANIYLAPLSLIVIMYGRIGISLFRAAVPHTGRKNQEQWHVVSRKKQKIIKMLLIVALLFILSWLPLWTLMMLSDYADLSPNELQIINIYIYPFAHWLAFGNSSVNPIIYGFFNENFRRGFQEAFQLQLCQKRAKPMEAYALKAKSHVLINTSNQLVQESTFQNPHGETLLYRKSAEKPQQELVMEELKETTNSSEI

| Compound | target | effect on | mode | method | notes | together with | Ki |
| --- | --- | --- | --- | --- | --- | --- | --- |
| OC(COCc1ccccc1Cl)CN1CC=C(c2c[nH]c3ccccc23)CC1 (racemic) | Sodium-dependent serotonin transporter (SLC6A4, Homo sapiens, UniProt P31645) | ligand displacement |  | radioligand |  |  | 37 nM |
| CC[C@H](C)[C@@H]1NC(=O)[C@H](CCOP(=O)(O)O)NC(=O)[C@H](Cc2ccc(Cl)cc2)NC(=O)CSC[C@@H](C(N)=O)NC(=O)[C@H](CC(=O)O)NC(=O)[C@H](CC(=O)O)NC(=O)[C@H](Cc2ccc(OP(=O)(O)O)cc2)NC1=O | Protein phosphatase 1D (PPM1D, Homo sapiens, UniProt O15297) | phosphatase activity | inhibitor | malachite green |  | ATM pS1981 peptide | 4700 ± 800 nM |
| CNC(=O)C1CCN(c2ccccc2NC(=O)c2ccc(-c3cc(O)ccc3C)c(C)n2)CC1 | Ephrin type-A receptor 2 (EPHA2, Homo sapiens, UniProt P29317) | enzyme activity | inhibitor |  |  |  | 0.13 nM |
| C=CC[N+]12CN3CN(CN(C3)C1)C2 | Apoptosis regulator BAX (BAX, Homo sapiens, UniProt Q07812) | ligand displacement |  | FP |  |  | 54.1 nM |
| N=C(N)Nc1ccc(C(=O)NCC2(Nc3ccccc3)CCN(Cc3ccccc3)CC2)cc1 | Neuropeptide FF receptor 2 (Homo sapiens, UniProt Q9Y5X5) | cell-free assay |  |  |  |  | 1620 nM |
| O=C(O)COc1ccc(Cl)cc1Cl | IAA7/TIR1 (Arabidopsis thaliana, UniProt Q38825+Q570C0) | binding |  |  |  | [3H]IAA | > 1000 nM |
| CN1CCN(c2ccc3cnn(C(=O)c4cccc5ccccc45)c3c2)CC1 | 5-hydroxytryptamine receptor 6 (HTR6, Homo sapiens, UniProt P50406) | ligand displacement |  | radioligand | cell membranes |  | 1280 nM |
| CCCN1CCO[C@@H]2c3cc(O)ccc3OC[C@H]21 | D(3) dopamine receptor (DRD3, Homo sapiens, UniProt P35462) |  |  |  |  |  | 2.65 ± 0.14 nM |
| CCCc1cc(Cc2ccccc2)cc2c1NCCC2NC(=O)C(N)Cc1c(C)cc(O)cc1C (stereo not drawn) | Delta-type opioid receptor (Oprd1, Rattus norvegicus, UniProt P33533) | ligand displacement |  | radioligand | cell membranes |  | 5.9 nM |
| CC[C@@H]1NC(=O)[C@H](CCCNC(=N)N)NC(=O)[C@H](NC(=O)C(C)C)CNC(=O)c2cc(F)c(c(F)c2)N=Nc2c(F)cc(cc2F)C(=O)NCCNC(=O)[C@@H](Cc2ccccc2)NC1=O | WD repeat-containing protein 5 (WDR5, Homo sapiens, UniProt P61964) | ligand displacement |  | FP |  |  | ~448 nM |
| CC[C@H](C)[C@@H]1NC(=O)[C@H](C(C)C)NC(=O)[C@H](C)NC(=O)[C@H](CCCNC(=N)N)NC(=O)[C@H]([C@@H](C)CC)NC(=O)[C@](C)(NC(=O)[C@H](CCC(=O)O)NC(=O)[C@H](CCCNC(=N)N)NC(=O)CNC(=O)[C@H](CO)NC(=O)[C@H](CC(C)C)NC(=O)[C@H](CCCNC(=N)N)NC(=O)[C@@H](NC(=O)CNC(=O)[C@H](Cc2ccc(O)cc2)NC(=O)[C@@H]2CCCN2C(=O)[C@H](C)NC(=O)[C@H](C)NC(=O)[C@@H](N)CCCNC(=N)N)C(C)C)CCCC=CCCCCCC[C@@](C)(C(=O)N[C@@H](CO)C(=O)NCC(=O)NCC(=O)N[C@@H](CO)C(=O)N[C@@H](CCCNC(=N)N)C(=O)N[C@@H](Cc2c[nH]c3ccccc23)C(=O)O)NC(=O)[C@H](Cc2ccccc2)NC1=O | Relaxin-3 receptor 1 (RXFP3, Homo sapiens, UniProt Q9NSD7) | ligand displacement |  |  |  |  | 89.1 nM |
| [2H]C([2H])(C)N1CCN(C2=Nc3cc(Cl)ccc3Nc3ccccc32)CC1 | Histamine H1 receptor (HRH1, Homo sapiens, UniProt P35367) | cell-free assay |  | radioligand |  |  | 5 nM |
